Measurements from different studies.
Each numbered part is a random draw from the data of one study; scales do not carry over between parts.

Study 1
Target: RING finger protein unkempt homolog, zinc fingers 1-6, GST-SBP tag (UNK, Homo sapiens, UniProt Q9C0B0, residues 30-357)
Technique: RNA Bind-n-Seq
Form: RNA
Medium: in vitro
Concentration: not given
Setting: RNA with constant flanks, human and mouse sites, ends assumed
Reference: input RNA pool
Reading: higher = stronger binding
Shared flanks, not repeated: GGGAGUUCUACAGUCCGACGAUC … CAACAGAGGAUUGAGCAUCA
Construct (chain): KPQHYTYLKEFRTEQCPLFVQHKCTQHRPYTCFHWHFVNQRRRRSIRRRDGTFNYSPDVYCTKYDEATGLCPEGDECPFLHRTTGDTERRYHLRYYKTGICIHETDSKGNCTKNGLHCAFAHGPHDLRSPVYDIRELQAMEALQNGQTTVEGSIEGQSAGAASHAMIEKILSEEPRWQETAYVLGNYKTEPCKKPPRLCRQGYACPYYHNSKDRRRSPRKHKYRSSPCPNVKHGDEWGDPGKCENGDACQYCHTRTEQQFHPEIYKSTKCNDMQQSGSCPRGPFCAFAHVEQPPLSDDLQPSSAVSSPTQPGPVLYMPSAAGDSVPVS
Oligonucleotide	bound/input enrichment
AUAACAAUGCUGGUUCCUGGAGGAGAAGGACCUGAAGUGUGAAUGAGUUUCCUUGACUUACACUAGAUUUUGUUUUGGCUUAUAAUGACAAGAAAAUGGAAUUUUUUUUCCCACUUUCUA	0.618 ratio
GUCAAUGACCAAAUAAUUACCACCUCACAAGCCAACUUUGGCAAGACCCUAUCUCUCCCCUACUCCUGAAUACAAUCGUGUGCAUUGGUUCUUCCAGGAAGACCAGAUUGAAUGGAAAUG	0.604 ratio
CUUUACCAGAAAGACUUCCUGCGCAUUGCAGGUCUGUGUCAGGACACUGCUCAGAGUUACACCUUUGGAUGUGGCCAUGAACUGGAUGAGGAAGGCCUCUAUUGCAACAGUUGCUUGGCC	0.0887 ratio
UGUAAGUGCCUUUACCUAAAUGAUUUGCCUUUCAUCAAAAAGUAGACAUUCUAUUAUAAGUAUUGCUCUUUGUUUAGUGCAAAAUACGGAGUUCUUAAGUUAGACUGGGCAUGUAACACA	0.598 ratio
UGCCUCUCAUUCAAUCCCUACAGCGAAUUUAUUCUAGCCACCGGCUCUGCGGAUAAGACCGUAGCUUUAUGGGAUCUGCGUAACUUAAAAUUAAAACUCCAUACCUUCGAAUCUCAUAAA	0.385 ratio
AACCGUCUCCAUGUAACUCUUGACAUACUUUUCUGAGAUUUGGCUUAUUUUUAUUAUUGGUUAUUUCUCACUGUUCAUUCUAUUUGAUUUAUUCUACAACAUCCCCUUUUAUUUAAUGAU	0.735 ratio
GUUACCUGUGUUGCUGCCUCUCCCCACAAAGACUCUGUGUUUCUUUCAUGUAGUGAGGACAGUAGAAUUUUGCUCUGGGAUACCCGCUGUCCCAAGCCGGCAUCACAGAUGGCCUGCAAU	0.628 ratio
AUAACUGAAGAUGUCUUGGAUUAUGCUGUGUCUAGCGUUUUAUUCCAGUCUGUAUGGUUACGCCUAAAGAGAGAAAAGUCUCAGCUAAUCUCAGGGAUGCAGAGAGAACGAGAAGAAGAA	0.226 ratio
CUGCAGAGCAAACCACCUCCUGGGAUUGGUGAAAGUUUGGGUGUAAAUGUGACUGAGAAAAUAGAAAUUCAUCUUGAAGAACCAGCCCCUUCAGAUAAACAGCUCUCUAAUGAUGCAGCG	0.406 ratio
UAUUCAGCCUGGGCAUUGCUCGCUGGGAGAGCCAGACCACCAGGCUCUUCCUCACCCUCCUUAGGAAGUGGUCUUCAGCACUGUUCUGACCCCAGGUGUUACCAGCUGGUUCAUCACAGG	0.171 ratio
AGUAGAGAGAUAACAAAAGCUGCUCAGAGUCUCAAUGAACUUGAUUAUCUUUCUCAAGGAAUAGAUCUUUCUGGAAUAGAAGUAAUAGAGAAUGAUCUACUCUUUAUUGCAAGAGCUCGA	0.53 ratio

Study 2
Target: RNA binding protein fox-1 homolog 2, RRM domain, GST-SBP tag (RBFOX2, Homo sapiens, UniProt O43251-10, residues 100-194)
Technique: RNA Bind-n-Seq
Form: RNA
Medium: in vitro
Concentration: 365 nM
Setting: natural RNA segment, single round, ends assumed
Reference: no-protein control
Reading: higher = stronger binding
Shared flanks, not repeated: GGGAGUUCUACAGUCCGACGAUC … UGGAAUUCUCGGGUGCCAA
Target sequence (chain): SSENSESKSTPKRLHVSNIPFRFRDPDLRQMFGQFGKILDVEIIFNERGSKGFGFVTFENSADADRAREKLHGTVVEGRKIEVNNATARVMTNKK
Oligonucleotide	RBNS enrichment (R)
UGAAAGCUUCUUCCAGUCCCUGAUCUGGCUCAUUCCCCACCUUCAACUCCCACCUUACAUGUCUCACACUAUCCCAUGGUUGGCAUUACACUCACUCCUGUUCCCUUAUU	0.836
AAAGAGACACACAAAGAUGGGCUGUGAGCCCCUAGAAAGGGACUAGUUAGUUGCCUUUGAUAGAAUUCCUUGCACCUGCCAUUGUUGGUUUGAUGAACACGAUUAGGUAC	1.15
AAAAGCUUGACUCUGAUUCACAGUUUUGUAUGUAGCUGGUUUGACGUAGUCUUUUGUAUUUUCCCUGCCGAAGUGAAUUGUUGGAGAAUGUAAACCGCCUCCACGUGGCG	4.79
GACCUUUGAGGUCUAAACAAAUAAUACCCCCGUCGGAAUGGUAACCGAGCCAGCAGCUGAAGUCUCUUUUUCUUCCUCUCGGCUGGAAGAACAUCAAGAUACCUUUGCGU	0.36
CUUCCUCAACUUAGUGGCAAAGCCCUGUAUGGAUACUUGUAGGUGCGGGUGAUCCUCAAGGCCAUGCUGCUUUCUGAGUUGUUCUUGUUGCUUUGUUCAUAAUGUGGUUA	0.47
UAAAGUGUAACCAUCAGUUAAACCUCUCCUGUCAUUCCUGGCUUCCUUGCUUCAGAAUUGAAAUGGAAGUGGGGGUGUCCCUACUCUGUAGAAUCUGGGACUGGGCAAAU	0.27
AAGGUGGUGGGCUAGUCCUGUGUCCUCCUCCACUUCCCAUGCCUCUAUGUUACCCAUCUGUGUCUCCUGUGCAGAAGGAGAGGAAGGGGCAUUAAGAGAUGAAGGGUGAU	0.758
UUCUAAAUUUAGUGAUAUGGUAAUGAAAUUGGUAUUUAUUUUAAAUAUUAGUUAUUCUAAGGAGAAAAAAAUGCUUCUGCAAGAUUUUCAUAAUUCAGGGGCUGUGGAUA	0.696
AGGGUAAUGAGGCAAAUGUACUAAAAUGAAUGAUAUAAAACAGUCUCUUCAUUUCUUGAGGUUGGUAAAAUUAUCGAACAAAGUCCUAAUAUGCCCAAAACUCAGAUCUU	0.407
UUUUCCUUCCUUCACUGUUGUAGUAAAGAGACAUAUUUCAUGAAUGGCAUUGAUGCUAAUAAAUCCUUUGCACAAAAAUUUGAAUAAACUUCCAGUGGUUUCGAUAACGU	0.557
UCAAGAGAUUUGUCCUCCUUGGGGGACCACUGGAUCAUUCCAGAUUUCUUGUGAUUUUUCUAUUGUGUAAUUCUUGGUGGGCUCUGUAGUUUAAUAAUAAGAAAAAGGCC	0.718
UGAUGACUGUCAGCAUCACUGCCGCAGGCCAUGCUUGACUAAGGUACCUGGUUUUAGCCACAGCCACCUCCUUGUAUGUUACCUUUCAGCUCUGGCCAAGAGUGGGACAG	0.642

Study 3
Target: Histone acetyltransferase KAT6A, winged helix 1, GST fusion (KAT6A, Homo sapiens, UniProt Q92794, residues 1-85)
Technique: protein binding microarray
Form: double-stranded DNA, one strand shown
Medium: in vitro
Concentration: not given
Setting: 8-mer, flanks averaged, mean of 2 arrays, mostly near background
Reference: not given
Reading: higher = stronger binding
Target sequence (chain): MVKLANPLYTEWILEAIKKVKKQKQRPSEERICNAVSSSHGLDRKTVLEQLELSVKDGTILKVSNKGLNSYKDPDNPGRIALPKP
Oligonucleotide	E-score
CCGTGCCA	0.128
CAGAGATA	-0.155
TACTTTCA	-0.127
AGACAGAG	-0.185
GACAATAC	-0.0836
AACAGGTG	-0.281
TCTAAAAA	-0.0565
CCACGTTA	-0.175
GTAATCCA	-0.188
CTTGTCGA	-0.0622
AGGGTCCC	-0.0547
ACCAGCAG	-0.172
CGTTCAAG	-0.018
AAATAGCG	0.0838
CTGAGGAC	-0.164
GGGGGTAC	0.116
AAGCGAAA	-0.113
CGGTTGTC	0.11
AGGAGTAC	-0.162
CACGATTA	-0.0177
ATTACCAA	-0.0491
AAACAACT	-0.193
CGCACGTA	0.114
AAGATCAT	-0.107
GACATACA	0.0233

Study 4
Target: Sal-like protein 4, full length isoform B (SALL4, Homo sapiens, UniProt Q9UJQ4-2, residues 1-616)
Technique: universal PBM
Form: double-stranded DNA, one strand shown
Medium: in vitro
Concentration: not given
Setting: 8-mer, flanks averaged, mean of replicates
Reading: higher = stronger binding
Target sequence (chain): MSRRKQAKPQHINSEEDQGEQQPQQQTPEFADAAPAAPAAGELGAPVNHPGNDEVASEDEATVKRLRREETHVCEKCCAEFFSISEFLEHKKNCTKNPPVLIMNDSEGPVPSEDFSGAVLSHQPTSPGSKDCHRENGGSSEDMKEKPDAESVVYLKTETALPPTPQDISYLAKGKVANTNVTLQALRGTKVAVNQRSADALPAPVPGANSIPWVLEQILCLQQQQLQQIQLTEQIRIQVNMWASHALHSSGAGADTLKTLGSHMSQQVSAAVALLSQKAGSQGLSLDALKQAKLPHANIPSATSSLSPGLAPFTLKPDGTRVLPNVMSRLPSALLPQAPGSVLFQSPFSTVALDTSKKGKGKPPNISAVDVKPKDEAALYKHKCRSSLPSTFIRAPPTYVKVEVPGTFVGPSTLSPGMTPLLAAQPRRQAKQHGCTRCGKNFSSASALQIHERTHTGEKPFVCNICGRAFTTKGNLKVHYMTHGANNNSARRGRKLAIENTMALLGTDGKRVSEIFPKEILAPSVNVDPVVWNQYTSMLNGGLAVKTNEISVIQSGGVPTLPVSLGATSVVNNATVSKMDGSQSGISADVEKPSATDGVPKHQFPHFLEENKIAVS
Oligonucleotide	E-score
AGTGCTGC	-0.154
ACCCGGCC	-0.362
CCTTTCAG	-0.0923
GTCTATTA	0.21
CTAATAGC	0.134
ACTGCTAC	0.0516
AGGCTTGC	-0.11
ACTTCGAG	-0.00337
CTATGTTA	0.21
GCCAATGA	-0.0805
CTATACGA	0.068
ACTACGCT	-0.00982
AACAAACT	0.129
GACGACAA	0.00895
GTTCGATA	0.18
GAAGCGAC	-0.101
AGACGTTA	0.185
CAGATTAG	-0.0166
GGGGCCGA	-0.305
ACCGAACT	-0.239
AGCTTAAA	-0.0177
CGGGTACA	-0.177
CCGCGGAC	-0.323
ACATTCAA	0.152
GTTAGATA	0.227

A few entries again (study 3):
Oligonucleotide	E-score
CGGTTGTC	0.11
GTAATCCA	-0.188
CTTGTCGA	-0.0622
CACGATTA	-0.0177
GACAATAC	-0.0836
AAACAACT	-0.193
GACATACA	0.0233
AGACAGAG	-0.185
CCGTGCCA	0.128
ATTACCAA	-0.0491
